Results of several laboratories.
Parts stem from different laboratories: compare values within a part only. Substitutions count along the parent as printed.

Block 1
Target: Interferon regulatory factor 7, full length, phosphomimetic (IRF7, Homo sapiens, UniProt Q92985, residues 1-503, S471D/S472D/S475D/S476D/S477D/S483D/S484D/S487D)
Sequence of UniProt Q92985 (whole entry, unmodified, looked up): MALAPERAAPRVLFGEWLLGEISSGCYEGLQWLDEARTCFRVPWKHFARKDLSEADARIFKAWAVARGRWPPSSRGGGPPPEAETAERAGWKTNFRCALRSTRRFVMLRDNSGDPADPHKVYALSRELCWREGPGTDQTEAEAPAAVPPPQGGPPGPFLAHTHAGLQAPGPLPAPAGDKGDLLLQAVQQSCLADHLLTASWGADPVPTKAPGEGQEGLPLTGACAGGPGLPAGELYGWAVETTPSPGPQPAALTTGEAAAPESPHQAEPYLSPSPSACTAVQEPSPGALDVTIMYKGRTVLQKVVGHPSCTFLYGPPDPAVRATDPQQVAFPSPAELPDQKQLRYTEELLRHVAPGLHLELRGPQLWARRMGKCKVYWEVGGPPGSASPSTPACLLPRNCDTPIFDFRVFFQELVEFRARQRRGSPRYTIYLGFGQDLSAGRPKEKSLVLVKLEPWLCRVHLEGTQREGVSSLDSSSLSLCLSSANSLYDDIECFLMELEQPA
Method: protein-binding microarray
Form: double-stranded DNA, one strand shown
Medium: in vitro
Concentration: 2200 nM top
Notes: 60-bp whole probe
With: salmon DNA 0.4 mg/ml
Baseline: random background probes
Reading: higher = stronger binding
Measurement: fitted relative affinity
Constant ends, left off below: GCCTAGCAC … GTCTTGATTCGCTTGACGCTGCTG
Sequence = GACGGTCTGGACTATCGGGACGTGCTA; value = -0.583 z-score
Sequence = GCCGGTCTCGGTCTCGGGACGTGCTAG; value = 0.299 z-score
Sequence = CTAGGTTTCCTACTGCTTTAGTGCTAG; value = 1.3 z-score
Sequence = TTAGATTTCAGTATCGAGTAGTGCTAG; value = 0.494 z-score
Sequence = TTAGGTCTCCTTCTTCTTTAGTGCTAG; value = 0.911 z-score
Sequence = GACGATCTCTGTATCGAGACGTGCTAG; value = 0.402 z-score
Sequence = TCACACTTCCTTCTGCCACTGTGCTAG; value = 2.52 z-score
Sequence = TTAGGTTTTGGTTCCGGTTAGTGCTAG; value = 2.89 z-score
Sequence = TTAGGACTGGGGACTGGGTCAGTGCTA; value = -1.12 z-score
Sequence = TGAACTTGGAATTTCCCTCTGTGCTAG; value = 0.44 z-score
Sequence = GACGATATCGGGACTGTAGACGTGCTA; value = 0.0877 z-score
Sequence = GACGAACTGCTACTGCTGACGTGCTAG; value = -0.0548 z-score
Sequence = TTAGGGTTCGACTATCGGTTAGTGCTA; value = 0.21 z-score
Sequence = TAAGATCTCAGTCTCGATTAGTGCTAG; value = 0.484 z-score
Sequence = TCAATGTTCCCTATATAACTGTGCTAG; value = 1.4 z-score
Sequence = CTGGATCTCAGACTGTGTCCGTGCTAG; value = 0.787 z-score
Sequence = GACGATTTCGGGTATCGGGACGTGCTA; value = 2.88 z-score
Sequence = TCATTTTTGGAATGTCTTACTGTGCTA; value = 2.06 z-score
Sequence = TCAGAATTAGGTTTCACACTGTGCTAG; value = 1.21 z-score
Sequence = GACGATTTCAGTCTCGCGACGTGCTAG; value = 0.775 z-score
Sequence = TTAGGTTTCGTCTATCGGTTAGTGCTA; value = 3.44 z-score
Sequence = TTAGGTATCGAGTTTCGGTTAGTGCTA; value = 5.05 z-score
Sequence = GACGATATAAGTATCGAGACGTGCTAG; value = 0.0692 z-score
Sequence = TTTTCAGCATCGCTCAGCACGTGCTAG; value = 0.653 z-score
Sequence = TTAGGTTCCCTACTGCTTTAGTGCTAG; value = 0.813 z-score

Block 2
Target: RING finger protein unkempt homolog, zinc fingers 1-6, GST-SBP tag (UNK, Homo sapiens, UniProt Q9C0B0, residues 30-357)
Sequence of UniProt Q9C0B0 (30-357, looked up): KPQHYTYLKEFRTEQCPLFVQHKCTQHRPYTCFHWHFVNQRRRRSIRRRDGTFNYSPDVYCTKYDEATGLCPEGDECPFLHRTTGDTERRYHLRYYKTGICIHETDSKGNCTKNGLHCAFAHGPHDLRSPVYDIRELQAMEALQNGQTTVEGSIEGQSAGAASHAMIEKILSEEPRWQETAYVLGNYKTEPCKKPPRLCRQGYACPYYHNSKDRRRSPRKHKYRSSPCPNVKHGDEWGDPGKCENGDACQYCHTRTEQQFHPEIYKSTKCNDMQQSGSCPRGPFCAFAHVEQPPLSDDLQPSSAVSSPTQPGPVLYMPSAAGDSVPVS
Method: RNA Bind-n-Seq
Form: RNA
Medium: in vitro
Concentration: not given
Notes: RNA with constant flanks, human-mouse chimeric sites, ends assumed
Baseline: input RNA pool
Reading: higher = stronger binding
Measurement: bound/input enrichment
Constant ends, left off below: GGGAGUUCUACAGUCCGACGAUC … CAACAGAGGAUUGAGCAUCA
Sequence = UCAUUUUUCUCUUUUCUUUCUUUCCUUAAAAGCCUAACUAAAGAUUAGGUUGUAAGAAAAACAGAAGCCAUGUUUCGAAGACCUGUGUUACAGGUAUUUCGUCAGUUUGUAAGACAUGAG; value = 0.163 ratio
Sequence = UACUCAACUUUCUUGCCACGUUUUGAAUUCCAAGACAUUAUUCCUCCAGAUGACUUCCUAACGAGUGAUGAAGAAGUAGAUUUGGUUUUAUUUGGAACUAUGAGAGGACAAGUUGUUGGA; value = 0.219 ratio
Sequence = UUAAUCCCCUUUACUGCUCCCCCACUUGUCAUGCUGAUAACAAAGUCUUAUAUCCCCGUCCUAGCUUUUACUCAGAUGGCUUAUGGAGCCGGUUUCCUAGCUUUCUUGGGAGGGAUCAGA; value = 0.642 ratio
Sequence = CAGUCCCCGUGUCCCAGUGCAGGACGAGAACAUGGACAACUCAAAGCGGACCCUCUACUGUAGUUGAUGAUUCUCGAAAUGUGCUAUUAUUGUUUGUCUUUUUUUUUUUUUUUUUAAAGA; value = 0.63 ratio
Sequence = GGGGAGAAACCUUACGAGUGUGUGCAGUGUGGGAAAUCCUACAGUCAAAGCUCAAAUCUCUUCAGACAUCAGAGACGACACAAUGCAGAAAAACUUUUGAAUGUUGUGAAGGUUUAAGAA; value = 0.128 ratio
Sequence = GUAAUGUUUAUUCAUUUAACUUAUUUUUAGCACUUAGUAAAUAUUGUUAGUCUUAGACAAUAGCUCACAUUUUUUGAGAAGCAUGCCCUCCCUGUCCAUUUGUCUUAUAACAUGACCCAG; value = 33.3 ratio

Block 3
Target: RNA binding protein fox-1 homolog 2, RRM domain, GST-SBP tag (RBFOX2, Homo sapiens, UniProt O43251-10, residues 100-194)
Method: RNA Bind-n-Seq
Form: RNA
Medium: in vitro
Concentration: 365 nM
Notes: natural RNA segment, single round, ends assumed
Baseline: no-protein control
Reading: higher = stronger binding
Measurement: RBNS enrichment (R)
Constant ends, left off below: GGGAGUUCUACAGUCCGACGAUC … UGGAAUUCUCGGGUGCCAA
Sequence = UUGUGUUAAAUAGUACUAGCUAGAAAUACAAAUUUCUGGUUAUCAUUUCUCUUCCCUGUGGCACUUGACAUUUUAAUUGUCUUAAAGUUUUUGAAGUACAUCUUCUGGCC; value = 0.364
Sequence = CACUACGCAACCCACUGCCCUGCCCUGCCCUGCCCUGGCGGGGACUCUGGUUCCCUCCUUGCCUUCUGCUUCUCUUCCAUCUGGUUGACAACACCUAAGGUGUUGUGACU; value = 0.462
Sequence = GGGAACGCCUCUCCCCUCCUUGUCCUUUCCAGUGGGUCUCAUCCCUUAUCUCGCUCUGGUGUUCACAGGCGGCAUGUGUUCCAGCCGACGAUCGCAUCUUGUGUCGCUGA; value = 4.83
Sequence = GGCAUUUUGUCCAGAACAGCUUGUAGCAGCUAUAGAUUCCCCCUUGGCCCCAAGCCUGGGACUUGAGCCAUCGUAACUCACUAACAGGGAGAAUUAGCUAGUAGCAAUGU; value = 0.442
Sequence = UCCCAUGUGUAUUUUCUUACAUACUGUGAAUGUGAAGACCCUAACUGGUACACUUGAUCUUAUGUCCAUAUGAAAGUGCAAAUCUUUAUUAAUUUGGAUUGCCUGAGCAG; value = 0.601
Sequence = UUCUGUGCAUGUACUAAAAAAGGAGAAAUUAUAAUAAAUUAGCCGUCUUGCGGCCCCUAGGCCUAAACUUCUGGUAUCUUAGUGUCUCAGUAUCUUAGUGUCCUUCACUC; value = 33.4
Sequence = GGGUUUGCUCCCAGGAAAGGAGAGGAAGAGCUAUAUAUAUGUGCCGACAUGUGGCAGACACACAGUAAAUAAUGGCUGACCAGCAUGAGGGCAGUACUGUCAGAAAUUUC; value = 13
Sequence = GAGUGCUGUUGGUACACGGAGCCCCCUCCUCCAUACCCAUUGCUGCACCACCACUGUGGAUUGCACGCCUUUCUGGGUGGCUGCAGUCUCUGUCCCUUGUGAAAGCAUGG; value = 3.95
Sequence = AUUCCACAUUCUAGGGUAUUCUGUAAUUUGGCUCCUUACCAAUAUUAUUAAAAUCUUAUUAAAAUCUCCCUACCAAAGCAUGUACAUUUUUAUGUUAUUAUAAUUAUAUG; value = 8.86
Sequence = UUAUCCUGUCUUUGGGGGCAAUGUGUCAAAAGUCCCCUCAGGAAUUUUCAGAGGAAAGAACAUUUUAUGAGGCUUUCUCUAAAGUUUCCUUUGUAUAGGAGUAUGCUCAC; value = 0.504
Sequence = CGAGGCCUUUGCCUGGGUCUGAAGGUCUUGGCCAGAGGAACACCAUCAUCAGUCAAGGGGUCUGGCCGCAGGCUCCCCUGUGAGCAAAUGCAGGGAAUCCGAGCAGAACA; value = 0.467
Sequence = UAAUCUCUAUGUACAUAUCUAUCUACCUGUAACCGUAGAUAGGUAUCUAGAUAGAUACCAAGCUUUUAAGCUCUGGGCUACUAUGCAUCAUUAUUGGGUCUCUGCCUUAA; value = 0.627

Block 4
Target: CCNF, cyclin fold, Cln2 fusion (human)
Method: yeast growth competition, sequencing
Medium: yeast
Notes: strong parent motif
Baseline: not given
Reading: higher = stronger binding
Measurement: normalised enrichment score
Starting sequence: CABLES2 docking peptide (human); ICAKRSLCAAFSV
Variant = C8A; value = 4.23
Variant = V13A; value = 2.6
Variant = I1A; value = 1.78
Variant = K4A; value = 1.5

Block 5
Target: Histone acetyltransferase KAT6A, winged helix 1, GST fusion (KAT6A, Homo sapiens, UniProt Q92794, residues 1-85)
Method: protein binding microarray
Form: double-stranded DNA, one strand shown
Medium: in vitro
Concentration: not given
Notes: 8-mer, flanks averaged, mean of 2 arrays, mostly near background
Baseline: not given
Reading: higher = stronger binding
Measurement: E-score
Target sequence (chain): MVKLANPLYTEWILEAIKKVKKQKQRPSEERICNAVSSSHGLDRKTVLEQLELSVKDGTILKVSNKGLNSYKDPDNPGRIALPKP
Sequence = AAGGACGT; value = -0.195
Sequence = CGGCACCA; value = 0.223
Sequence = CCCGACGG; value = 0.475
Sequence = GCGCAGAC; value = 0.308
Sequence = ATGCTCTA; value = -0.0492
Sequence = CTAATTCC; value = -0.143
Sequence = AGCCGTCG; value = 0.443
Sequence = AGTAAACG; value = 0.0735
Sequence = CGGCCACC; value = 0.344
Sequence = CTCTAGCC; value = -0.0148
Sequence = GCGGCCAC; value = 0.343
Sequence = CGTGTTGC; value = 0.181
Sequence = ACCATTCT; value = -0.208
Sequence = ACGCGTAA; value = 0.304
Sequence = GGGAGCTA; value = -0.0146
Sequence = AGTTCGCA; value = -0.0238
Sequence = CACAACAC; value = -0.0785
Sequence = CCCATTGA; value = 0.0364
Sequence = CCCAATAA; value = -0.232
Sequence = GGAGGACA; value = -0.0608
Sequence = ACGGGCCG; value = 0.33
Sequence = ATTGGAGC; value = -0.181

For quick reference, copied from above (block 5):
Sequence = ACCATTCT; value = -0.208
Sequence = CTCTAGCC; value = -0.0148
Sequence = AAGGACGT; value = -0.195
Sequence = GGGAGCTA; value = -0.0146
Sequence = GGAGGACA; value = -0.0608
Sequence = CGGCACCA; value = 0.223
Sequence = CCCAATAA; value = -0.232
Sequence = CCCGACGG; value = 0.475
